# Measurements of several laboratories.
# Compare with care: the assays were run in different laboratories. ± marks the error that the study gave.
# ache: Acetylcholinesterase (ache, Electrophorus electricus, UniProt O42275)
# UniProt O42275, sequence (whole entry, looked up): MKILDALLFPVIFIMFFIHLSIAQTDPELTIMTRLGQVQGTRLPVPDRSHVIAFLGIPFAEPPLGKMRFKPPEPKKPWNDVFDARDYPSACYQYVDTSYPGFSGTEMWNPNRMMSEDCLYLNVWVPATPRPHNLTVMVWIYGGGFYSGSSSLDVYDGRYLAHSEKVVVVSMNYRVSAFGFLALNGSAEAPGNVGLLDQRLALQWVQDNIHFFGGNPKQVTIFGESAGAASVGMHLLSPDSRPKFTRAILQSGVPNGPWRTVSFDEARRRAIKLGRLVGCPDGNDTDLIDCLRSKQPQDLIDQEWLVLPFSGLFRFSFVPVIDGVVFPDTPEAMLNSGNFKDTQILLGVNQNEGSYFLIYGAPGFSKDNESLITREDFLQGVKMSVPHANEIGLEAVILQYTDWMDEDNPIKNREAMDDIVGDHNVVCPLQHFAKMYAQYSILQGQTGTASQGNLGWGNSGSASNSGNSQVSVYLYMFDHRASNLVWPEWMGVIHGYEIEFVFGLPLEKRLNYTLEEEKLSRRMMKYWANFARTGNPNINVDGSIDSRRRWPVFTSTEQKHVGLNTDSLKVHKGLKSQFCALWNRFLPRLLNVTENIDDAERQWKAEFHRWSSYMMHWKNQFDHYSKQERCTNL
# UniProt Q9Y2I7, sequence (whole entry, looked up): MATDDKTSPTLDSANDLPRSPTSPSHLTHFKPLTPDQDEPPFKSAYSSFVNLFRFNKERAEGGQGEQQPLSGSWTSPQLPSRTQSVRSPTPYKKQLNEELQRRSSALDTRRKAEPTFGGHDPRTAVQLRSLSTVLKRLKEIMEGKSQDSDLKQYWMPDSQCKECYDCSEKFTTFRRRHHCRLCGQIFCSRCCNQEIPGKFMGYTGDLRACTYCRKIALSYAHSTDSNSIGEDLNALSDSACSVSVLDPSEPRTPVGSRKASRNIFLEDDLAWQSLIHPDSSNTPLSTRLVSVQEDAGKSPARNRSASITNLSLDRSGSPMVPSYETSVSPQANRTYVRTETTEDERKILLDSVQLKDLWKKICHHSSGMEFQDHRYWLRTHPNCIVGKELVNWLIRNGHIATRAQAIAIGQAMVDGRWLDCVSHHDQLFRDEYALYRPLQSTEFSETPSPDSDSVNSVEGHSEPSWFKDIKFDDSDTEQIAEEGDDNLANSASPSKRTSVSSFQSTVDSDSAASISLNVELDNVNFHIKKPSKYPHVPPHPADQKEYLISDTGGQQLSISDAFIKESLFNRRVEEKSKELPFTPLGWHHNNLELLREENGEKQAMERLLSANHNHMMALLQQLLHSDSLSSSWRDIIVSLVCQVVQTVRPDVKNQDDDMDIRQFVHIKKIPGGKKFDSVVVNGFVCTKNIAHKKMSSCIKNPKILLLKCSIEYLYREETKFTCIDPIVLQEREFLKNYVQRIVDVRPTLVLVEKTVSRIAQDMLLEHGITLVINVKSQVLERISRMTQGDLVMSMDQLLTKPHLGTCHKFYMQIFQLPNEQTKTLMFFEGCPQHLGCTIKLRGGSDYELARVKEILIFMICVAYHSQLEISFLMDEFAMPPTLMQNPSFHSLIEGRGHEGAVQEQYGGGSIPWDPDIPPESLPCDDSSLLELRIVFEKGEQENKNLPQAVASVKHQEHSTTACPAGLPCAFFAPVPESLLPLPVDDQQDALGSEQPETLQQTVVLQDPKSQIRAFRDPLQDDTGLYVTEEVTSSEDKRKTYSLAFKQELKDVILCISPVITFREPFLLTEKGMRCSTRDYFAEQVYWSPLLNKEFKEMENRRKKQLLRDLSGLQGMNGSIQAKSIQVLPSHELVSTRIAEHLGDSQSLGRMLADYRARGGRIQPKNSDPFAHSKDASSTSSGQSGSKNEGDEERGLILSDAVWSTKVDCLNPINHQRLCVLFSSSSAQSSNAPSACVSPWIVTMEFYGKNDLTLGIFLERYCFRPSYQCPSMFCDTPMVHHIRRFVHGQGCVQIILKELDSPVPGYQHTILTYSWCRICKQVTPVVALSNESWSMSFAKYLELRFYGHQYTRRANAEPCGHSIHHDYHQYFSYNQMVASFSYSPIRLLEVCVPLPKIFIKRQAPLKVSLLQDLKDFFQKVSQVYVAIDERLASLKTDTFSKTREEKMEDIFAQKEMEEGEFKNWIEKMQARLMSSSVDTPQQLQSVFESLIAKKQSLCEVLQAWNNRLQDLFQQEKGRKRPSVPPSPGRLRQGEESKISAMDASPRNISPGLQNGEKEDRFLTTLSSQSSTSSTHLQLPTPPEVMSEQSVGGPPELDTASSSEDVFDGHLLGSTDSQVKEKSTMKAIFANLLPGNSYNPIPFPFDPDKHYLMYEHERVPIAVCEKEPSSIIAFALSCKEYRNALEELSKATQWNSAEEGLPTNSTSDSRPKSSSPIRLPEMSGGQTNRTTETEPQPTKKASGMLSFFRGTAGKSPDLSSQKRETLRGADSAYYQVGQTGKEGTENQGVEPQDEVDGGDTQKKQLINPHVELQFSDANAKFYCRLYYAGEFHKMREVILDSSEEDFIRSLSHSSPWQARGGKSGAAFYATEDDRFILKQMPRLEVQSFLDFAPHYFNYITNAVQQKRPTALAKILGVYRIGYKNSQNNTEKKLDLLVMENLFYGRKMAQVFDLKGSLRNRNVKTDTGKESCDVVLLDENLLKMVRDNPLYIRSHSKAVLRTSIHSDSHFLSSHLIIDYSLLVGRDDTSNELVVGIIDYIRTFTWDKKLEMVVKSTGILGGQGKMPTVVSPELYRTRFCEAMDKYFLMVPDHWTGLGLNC
# UniProt Q8IW41, sequence (whole entry, looked up): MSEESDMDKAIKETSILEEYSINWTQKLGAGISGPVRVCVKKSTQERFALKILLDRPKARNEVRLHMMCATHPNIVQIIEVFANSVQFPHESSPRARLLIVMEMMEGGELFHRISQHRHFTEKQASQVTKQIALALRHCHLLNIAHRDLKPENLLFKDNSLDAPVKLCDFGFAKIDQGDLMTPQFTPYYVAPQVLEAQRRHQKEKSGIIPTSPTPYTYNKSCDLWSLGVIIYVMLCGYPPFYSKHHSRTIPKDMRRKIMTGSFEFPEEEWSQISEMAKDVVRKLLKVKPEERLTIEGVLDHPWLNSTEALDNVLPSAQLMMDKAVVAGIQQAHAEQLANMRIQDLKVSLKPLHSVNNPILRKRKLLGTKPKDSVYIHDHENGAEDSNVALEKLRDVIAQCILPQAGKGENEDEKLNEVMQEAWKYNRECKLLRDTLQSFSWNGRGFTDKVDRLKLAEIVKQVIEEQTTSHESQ
# UniProt Q86Y07, sequence (whole entry, looked up): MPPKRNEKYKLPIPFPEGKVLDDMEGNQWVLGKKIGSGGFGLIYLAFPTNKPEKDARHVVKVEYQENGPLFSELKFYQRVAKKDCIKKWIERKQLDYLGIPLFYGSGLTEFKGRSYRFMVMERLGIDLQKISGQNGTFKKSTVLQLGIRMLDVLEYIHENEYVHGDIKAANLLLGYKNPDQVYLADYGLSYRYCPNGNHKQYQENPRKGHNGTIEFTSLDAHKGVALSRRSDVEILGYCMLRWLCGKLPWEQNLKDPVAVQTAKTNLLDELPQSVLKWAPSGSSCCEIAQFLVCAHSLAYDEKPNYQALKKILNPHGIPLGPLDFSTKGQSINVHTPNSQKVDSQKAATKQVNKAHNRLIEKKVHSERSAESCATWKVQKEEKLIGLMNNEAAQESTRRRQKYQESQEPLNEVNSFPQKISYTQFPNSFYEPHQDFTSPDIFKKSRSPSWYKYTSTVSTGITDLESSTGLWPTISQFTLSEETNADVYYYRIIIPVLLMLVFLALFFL
# UniProt Q05655, sequence (whole entry, looked up): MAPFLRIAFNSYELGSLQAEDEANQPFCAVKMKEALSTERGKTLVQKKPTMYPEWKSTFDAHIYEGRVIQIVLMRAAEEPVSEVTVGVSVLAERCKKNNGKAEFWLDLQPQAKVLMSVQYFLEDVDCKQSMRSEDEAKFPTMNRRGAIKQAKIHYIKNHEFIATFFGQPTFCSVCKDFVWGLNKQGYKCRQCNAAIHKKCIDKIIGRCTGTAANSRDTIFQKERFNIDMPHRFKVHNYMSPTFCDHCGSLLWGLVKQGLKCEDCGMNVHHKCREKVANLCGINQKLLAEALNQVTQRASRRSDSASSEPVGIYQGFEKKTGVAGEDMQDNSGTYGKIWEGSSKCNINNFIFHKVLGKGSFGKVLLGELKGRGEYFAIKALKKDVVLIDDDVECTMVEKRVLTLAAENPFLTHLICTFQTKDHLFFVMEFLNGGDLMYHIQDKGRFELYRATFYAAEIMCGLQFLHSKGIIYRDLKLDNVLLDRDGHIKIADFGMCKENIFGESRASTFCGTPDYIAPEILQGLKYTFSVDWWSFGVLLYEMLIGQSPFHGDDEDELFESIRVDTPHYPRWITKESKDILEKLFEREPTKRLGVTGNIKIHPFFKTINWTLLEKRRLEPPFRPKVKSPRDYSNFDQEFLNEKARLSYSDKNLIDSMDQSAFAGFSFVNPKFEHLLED
# UniProt P32241, sequence (whole entry, looked up): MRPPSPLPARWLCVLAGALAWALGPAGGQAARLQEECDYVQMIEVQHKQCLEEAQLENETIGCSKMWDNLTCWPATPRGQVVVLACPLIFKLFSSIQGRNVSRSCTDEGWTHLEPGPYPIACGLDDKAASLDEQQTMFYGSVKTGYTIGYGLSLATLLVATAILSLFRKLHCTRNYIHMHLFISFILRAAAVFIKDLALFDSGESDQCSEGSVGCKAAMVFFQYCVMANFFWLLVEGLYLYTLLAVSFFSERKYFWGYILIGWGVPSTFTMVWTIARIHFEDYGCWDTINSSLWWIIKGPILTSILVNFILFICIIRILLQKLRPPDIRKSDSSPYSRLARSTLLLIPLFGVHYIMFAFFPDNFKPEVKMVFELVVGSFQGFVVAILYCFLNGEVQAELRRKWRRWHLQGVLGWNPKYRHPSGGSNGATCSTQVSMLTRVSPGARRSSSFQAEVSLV
SMILES,tested on,test,system,setting,scale,quantity,value
O=C1NC2(CC2)COc2ncc(F)cc2[C@H]2COCCN2c2ccn3ncc1c3n2,,,"Sprague-Dawley rat, female, serum","oral, 2.5 mg/kg/day, end of recovery, 4-week subacute toxicity",,serum total bilirubin,1.4 ± 0.5 µmol/L
NCCc1ccc(F)cc1,ache,"enzyme activity, inhibitor, Ellman",,20 µM,,inhibition,49.3%
Cc1sc2c(c1C)C(c1ccc(Cl)cc1)=NC(CC(=O)OC(C)(C)C)c1nnc(C)n1-2 (stereo not drawn),"VIPR1 (Homo sapiens, UniProt P32241)","ligand displacement, radioligand",,1 µM,,remaining binding,109%
O=C(Oc1cncc(Cl)c1)c1cccc2[nH]ccc12,"Cathepsin B (CTSB, Homo sapiens, UniProt P07858)","enzyme activity, inhibitor, absorbance",,10 µM,,inhibition,5%
CC(C)(C)C(=O)OCOP(=O)(OCOC(=O)C(C)(C)C)C1CCCN(O)C1=O (stereo not drawn),MDA-MB-468,,,,,log LC50,-4.3 log M
CS(C)(=O)=Nc1ccc(-c2ccc(-c3nc4cc(O[C@@H]5CO[C@H]6[C@@H]5OC[C@H]6O)[nH]c4cc3F)cc2)cc1,"PRKCD (Homo sapiens, UniProt Q05655)","enzyme activity, inhibitor",,10 µM,,inhibition,3%
Cc1cc(-c2ccc3ccccc3c2)nnc1NCCN1CCN(C)CC1,"SLC22A6 (Homo sapiens, UniProt Q4U2R8)",transport,,concentration not given,,inhibition,negative
O=C(O)c1ccccc1/C=N/Nc1nc(-c2ccccc2Cl)cs1,"Aurora kinase C (AURKC, Homo sapiens, UniProt Q9UQB9)","enzyme activity, inhibitor",,1 µM,,inhibition,-3.94%
Cc1ccc2c(n1)c(-c1cccc(S(C)(=O)=O)c1)c(C)n2C/C(F)=C/CN,"ADRA1D (Homo sapiens, UniProt P25100)",off-target safety screen,,10 µM,,inhibition,-7%
CN(C)[C@H]1C[C@@]23CC[C@@]4(O2)C(=CC[C@]2(C)[C@@H](c5ccc6ccncc6c5)CC[C@H]24)C=C3[C@@H](O)[C@@H]1O,"PIKFYVE (Homo sapiens, UniProt Q9Y2I7)","ATP probe labelling, inhibitor, KiNativ profiling",,0.1 µM,,inhibition,-3.9%
COc1ccccc1-c1n[nH]c2nc(NC3CCN(C(=O)Cc4ccc(F)cc4F)CC3)ncc12,,"bead binding, competition bead pull-down, item: LINJ.34.0080",Leishmania donovani extract,10 µM,reference: vehicle,relative abundance,0.96
CC(C)[C@H]1NC(=O)C[C@H]2/C=C/CCSSC[C@@H](NC1=O)C(=O)N[C@H](Cc1cccc3ccccc13)C(=O)NCC(=O)O2,"MAPKAPK5 (Homo sapiens, UniProt Q8IW41)","enzyme activity, inhibitor",,10 µM,,inhibition,-1.1%
CN1CCN(c2ccc(Nc3cc4[nH]c(-c5cccc(F)c5)cc4cn3)cc2)CC1,ache,"enzyme activity, inhibitor, Ellman",,5 µM,,inhibition,62.3%
C[n+]1cn([C@@H]2O[C@H](COP(=O)([S-])OP(=O)(O)OP(=O)(O)OP(=O)([S-])OC[C@H]3O[C@@H](n4c[n+](C)c5c(O)nc(N)nc54)[C@H](O)[C@@H]3O)[C@@H](O)[C@H]2O)c2nc(N)nc(O)c21 (mixture of isomers),"mRNA decapping complex subunit 2, with Dcp1 (dcp2, Schizosaccharomyces pombe, UniProt O13828)",,,"200 µM, 0.25 h",,inhibition,49.4%
COc1ccc(F)cc1S(=O)(=O)Nc1cnc2c(c1)C(=O)NCCO2,GABAA receptor,radioligand binding,hippocampus,"10 µM, with: Ro 15-1788",,inhibition,-5%
CC[C@H](C)[C@H](NC(=O)[C@H](CO)NC(=O)[C@H](Cc1ccc(O)cc1)NC(=O)[C@H](Cc1ccc(O)cc1)NC(=O)[C@H](CC(N)=O)NC(=O)CNC(=O)[C@H](CO)NC(=O)[C@H](Cc1ccc(O)cc1)NC(=O)[C@H](CO)NC(=O)[C@H](CO)NC(=O)[C@H](CC(N)=O)NC(=O)COCCOCCNC(=O)CN1CCN(CC(=O)O)CCN(CC(=O)O)CCN(CC(=O)O)CC1)C(=O)N[C@@H](CC(C)C)C(N)=O [copper-64 labelled],,dynamic PET,"KPC mouse Ptf1a-CreER tdTomato, pancreas","intravenous, 4.6 MBq/mouse, 1.1 min, 84 d after tamoxifen",,tissue uptake,13.3 %ID/mL
O=C1NC(=O)c2c1c1cc(F)c[n+]3c1c1c2c2cc(O)ccc2[n]1[Ru-4]312([N]=C=S)[S+]3CC[S+]1CC[S+]2CC3 (stereo not drawn),"VRK2 (Homo sapiens, UniProt Q86Y07)",enzyme activity,,"100 nM, human enzyme, with: 10 µM ATP",reference: untreated,remaining activity,63%
C[C@H](NCc1ccc(-c2ccc(C(F)(F)F)cc2)cc1)C(N)=O,"Estrogen receptor (ESR1, Homo sapiens, UniProt P03372)","radioligand binding, SafetyScreen panel",,"1 µM, with: 0.50 nM [3H]Estradiol",,inhibition,1%

# Repeated from above:
SMILES,tested on,test,system,setting,scale,quantity,value
Cc1cc(-c2ccc3ccccc3c2)nnc1NCCN1CCN(C)CC1,"SLC22A6 (Homo sapiens, UniProt Q4U2R8)",transport,,concentration not given,,inhibition,negative
O=C(O)c1ccccc1/C=N/Nc1nc(-c2ccccc2Cl)cs1,"Aurora kinase C (AURKC, Homo sapiens, UniProt Q9UQB9)","enzyme activity, inhibitor",,1 µM,,inhibition,-3.94%
